# Results collected from several papers.
# Parts stem from different laboratories: compare values within a part only. Changes are numbered by the printed parent chain.

# Series 1
# Target: CCNE1, cyclin fold, Cln2 fusion (human)
# Technique: yeast growth competition, sequencing
# Matrix: yeast
# Setting: strong parent motif
# Reference: not given
# Reading: higher = stronger binding
# Starting sequence: BRCA2 docking peptide (human); PSIKRNLLNEFDR; partner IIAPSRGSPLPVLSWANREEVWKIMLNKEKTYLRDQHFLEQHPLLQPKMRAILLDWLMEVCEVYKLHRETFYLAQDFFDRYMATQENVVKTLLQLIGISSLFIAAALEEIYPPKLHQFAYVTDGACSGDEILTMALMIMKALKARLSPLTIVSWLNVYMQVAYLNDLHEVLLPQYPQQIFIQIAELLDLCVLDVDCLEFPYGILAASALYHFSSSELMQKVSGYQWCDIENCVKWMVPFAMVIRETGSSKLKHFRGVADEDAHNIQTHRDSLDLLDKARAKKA
Variant,normalised enrichment score
K4V,2.27
R13L,1.68
F11I,1.74
I3P,1.93
E10M,0.854
R13Q,2.46
K4H,0.442
R5C,-0.0137
S2P,1.18
I3R,-0.0704
S2D,1.4
I3A,5.37
E10N,0.831
L8H,0.369
N9D,2.37
P1E,2.71
R5I,0.721
S2L,2.33
S2R,1.29
N6H,1.5
R5N,-0.224
L7E,0.264
F11L,0.598
I3M,0.51

# Series 2
# Target: RNA binding protein fox-1 homolog 2, RRM domain, GST-SBP tag (RBFOX2, Homo sapiens, UniProt O43251-10, residues 100-194)
# Technique: RNA Bind-n-Seq
# Form: RNA
# Matrix: in vitro
# Tested at: 365 nM
# Setting: natural RNA segment, single round, ends assumed
# Reference: no-protein control
# Reading: higher = stronger binding
# Target sequence (chain): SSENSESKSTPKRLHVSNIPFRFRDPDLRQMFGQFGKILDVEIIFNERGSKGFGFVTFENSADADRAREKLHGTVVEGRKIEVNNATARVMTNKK
Oligonucleotide,RBNS enrichment (R)
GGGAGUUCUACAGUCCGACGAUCUGCUGCCUGGAGAACUGAGAAUAGACCUCUGUUGUUGACCCUUCCUCAGGCUGGAGCCUGGGUGUUGGAAGGGAGAGACUGUCACCCAGUUGUCAUGUCUUUUGGUUGUGUGGAAUUCUCGGGUGCCAA,0.718
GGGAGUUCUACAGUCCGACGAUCUAAACUUCAGCAGAGUCCACUUGUUCUCCCGGAAGCUUAAUGUAAUUGAAUGGCAGUUAUCACUAAAUAAAAUUCUUUUCUGAGUCUCUCCCGAGAGUGGCAGUCCUUUGUGGAAUUCUCGGGUGCCAA,0.717
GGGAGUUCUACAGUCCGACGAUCUCCAGACCCCUCUCUAGGACCAAGUCACCCGUCGUGCUGGGAGUGUGGAUUCUAGCAAAAGAGCUGGAAAAAAGUCAGACUCUCCACAGACCCCCUAUGGGGGACCCCCAUGGAAUUCUCGGGUGCCAA,0.356
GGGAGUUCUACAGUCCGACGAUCAAGAUCAUGGCAGGCAGCAAGUGAGCCCCAGCUGGACUCAUGGAUGUGCACCCUUUGCUCCCUGCUCUUUCUGCCUCUGGGCUCAUGUAUCUGCGCAGCUCUGGUACCCUUGGAAUUCUCGGGUGCCAA,0.403
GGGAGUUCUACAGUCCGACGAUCCCAAUGACAUAAAUACAUACAAGACACACAACUAAAAUGUCAUGUUAUUAACAGUUAUUAGGUUGUCAUUUAAAAAUAAAGUUCCUUUAUAUUUCUGUCCCAUCAGGAAAUGGAAUUCUCGGGUGCCAA,0.323
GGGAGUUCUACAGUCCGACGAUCCACCGAAAGAGCUCUUCUUUUCCCCUUAGAUGUACAGUAGGAGAGGUUGUUAAGUGUUCUCUCUUUGCUUCCGUUUACUGAGUUUUCAAAGGUUUGUGGGAAAAUGUAGGUGGAAUUCUCGGGUGCCAA,1
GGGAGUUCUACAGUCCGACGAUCCUCUGUACAGGUGCCCUGAGCCUGGGUGCUCACUGUGGCGGUCCCCGUCCUGGCUAUGAAACCUUGUGAGCAGAAGGCAAGAGCGGCAAGAUGAGUUUUGAGCGUUGUAUUGGAAUUCUCGGGUGCCAA,0.455
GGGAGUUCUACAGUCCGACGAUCCUCCCUCCCUCUAGUCUGCAUGUGUGCAAGGAUGUCAGACAGUCUCGACUUAGGAUGGACAGACACAGAGGGGUGCCUUCUAUGGUGCCAGCCUGUCAUGCCCAGUCCCUUGGAAUUCUCGGGUGCCAA,1.69
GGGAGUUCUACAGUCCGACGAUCUCUCAGUGCCAUAUGAAGUAGCAAAAGGCAGUAUCGGCCAGAUCAGUGUUACAUUGAUUCUAAAAUUACAGUGUCCCCAUUAGACAACUAUUUUAGGUGCUGGAGUAUGUUGGAAUUCUCGGGUGCCAA,0.28
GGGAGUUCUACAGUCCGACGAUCGGGACCAUGCUGCCCCCACUCCCGCUUUUGUUGGGGCUCUAAGUUCUGGAAGGUGUGUGCACAGAGGGUGCUCAUGGGACUCGCAUGCAGCUCUCAGCACUGGGUGGGAGUGGAAUUCUCGGGUGCCAA,15.3
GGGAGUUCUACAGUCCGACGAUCAUAAAAUAGUUUUCACAUUUUCAAUAUGCAAGUUUUGAAAAUGAGGAUUUGCCUGGACUUUUUUAUAUUUAAUGCUGGGAAACCUUCCUCAUAUUAACAACCCAUGUAUGUGGAAUUCUCGGGUGCCAA,4.68
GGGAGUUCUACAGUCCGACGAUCGCCAAGUGGAUUUGGUACAGUGCGGCUGUCUAAUAAAUAAUCAAAAGCAUUUGAUAGAAAUCUGUCUUGCAGCACUGUCUUCACAUUUAAUGUUGCUUUCUCUUCUAGUCUGGAAUUCUCGGGUGCCAA,0.429

# Series 3
# Target: Prothrombin, mature alpha-thrombin (F2, Homo sapiens, UniProt P00734)
# Technique: aptamer microarray, sandwich
# Form: DNA with 2'F-ANA
# Matrix: in vitro
# Tested at: 200 nM
# Setting: whole 15-mer aptamer, many near background
# Added: Cy3 exosite-II aptamer, 400 nM
# Reading: higher = stronger binding
# Oligonucleotide: GGTTGGTGTGGTTGG
Modification,mean fluorescence intensity
2'F-ANA at 1 2 3 5 6 9 10 14,45.7 a.u.
2'F-ANA at 1 3 4 5 6 7 8 9 11 12 13 15,74.1 a.u.
2'F-ANA at 1 2 3 4 5 6 7 8 10 13 14 15,99.6 a.u.
2'F-ANA at 4 6 7 10 15,79.4 a.u.
2'F-ANA at 1 4 5 9 10 12 15,48.4 a.u.
2'F-ANA at 2 4 8 14,132 a.u.
2'F-ANA at 3 4 6 7 9 11 12 13 14,254 a.u.
2'F-ANA at 1 2 4 6 7 9 13 14,51.4 a.u.
2'F-ANA at 2 6 9 10 11 13,146 a.u.
2'F-ANA at 1 2 4 7 8 11 13,102 a.u.
2'F-ANA at 1 3 5 6 8 13 15,65.8 a.u.
2'F-ANA at 2 7 10 13 14 15,90.9 a.u.
2'F-ANA at 1 3 5 9 10 12 13 14 15,44.7 a.u.
2'F-ANA at 1 2 4 6 7 8 9 10 12 13 14 15,49.6 a.u.
2'F-ANA at 1 2 4 6 7 10 11 12 13 14,66.4 a.u.
2'F-ANA at 2 5 6 8 9 14 15,47.3 a.u.
2'F-ANA at 1 2 3 4 5 9 10 13 14,56.8 a.u.
2'F-ANA at 1 2 6 9 11 13 15,87.1 a.u.
2'F-ANA at 2 7 8 11 15,446 a.u.
2'F-ANA at 1 2 3 7 10 14,52.3 a.u.
2'F-ANA at 2 3 4 5 6 8 9 11 12 13,100 a.u.
2'F-ANA at 1 2 4 5 6 7 8 10 13 14,64.5 a.u.
2'F-ANA at 3 4 5 7 9 10 11 13 14,48.5 a.u.
2'F-ANA at 4 7 12 13 15,444 a.u.
2'F-ANA at 4 5 6 7 11 15,61.3 a.u.

# Series 4
# Target: ABI1, truncated, D143A, DHFR fusion (Arabidopsis thaliana)
# Technique: DHFR PCA, deep sequencing
# Matrix: yeast
# Setting: methotrexate growth selection, single substitutions
# Added: (+)-ABA 0 µM
# Reference: wild-type fitted maximum
# Reading: higher = stronger binding
# Starting sequence: PYL1, truncated, DHFR fusion (Arabidopsis thaliana); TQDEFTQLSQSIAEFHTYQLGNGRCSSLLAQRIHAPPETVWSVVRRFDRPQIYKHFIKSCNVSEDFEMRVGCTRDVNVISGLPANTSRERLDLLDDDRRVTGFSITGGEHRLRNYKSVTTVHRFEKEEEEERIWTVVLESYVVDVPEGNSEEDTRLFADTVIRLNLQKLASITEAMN; partner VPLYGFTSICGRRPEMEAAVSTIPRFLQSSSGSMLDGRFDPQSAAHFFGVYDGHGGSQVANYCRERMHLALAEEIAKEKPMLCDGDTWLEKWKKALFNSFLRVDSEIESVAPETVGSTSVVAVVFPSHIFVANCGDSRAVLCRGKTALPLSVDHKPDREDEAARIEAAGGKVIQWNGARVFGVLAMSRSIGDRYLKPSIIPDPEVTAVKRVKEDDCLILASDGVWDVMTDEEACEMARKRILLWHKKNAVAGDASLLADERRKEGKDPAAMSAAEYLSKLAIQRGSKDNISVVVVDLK
Variant,relative binding score [%]
T39A,16.8
V78I,44.7
E38V,-2.05
R113C,8.31
E151T,15.9
K54I,-0.328
R88H,48.8
A170Y,-19.5
E125P,33.9
P36T,18.2
Q31N,-1.42
P83G,54.4
A158Y,18
E4P,10.2
F47P,-1.98
V76F,2.05
V142G,1.93
V76M,6.98

# Series 5
# Target: Interferon regulatory factor 7, full length, phosphomimetic (IRF7, Homo sapiens, UniProt Q92985, residues 1-503, S471D/S472D/S475D/S476D/S477D/S483D/S484D/S487D)
# Technique: protein-binding microarray
# Form: double-stranded DNA, one strand shown
# Matrix: in vitro
# Tested at: 2200 nM top
# Setting: 60-bp whole probe
# Added: salmon DNA 0.4 mg/ml
# Reference: random background probes
# Reading: higher = stronger binding
# Shared flanks, not repeated: GCCTAGCAC … GTCTTGATTCGCTTGACGCTGCTG
# Target sequence (chain): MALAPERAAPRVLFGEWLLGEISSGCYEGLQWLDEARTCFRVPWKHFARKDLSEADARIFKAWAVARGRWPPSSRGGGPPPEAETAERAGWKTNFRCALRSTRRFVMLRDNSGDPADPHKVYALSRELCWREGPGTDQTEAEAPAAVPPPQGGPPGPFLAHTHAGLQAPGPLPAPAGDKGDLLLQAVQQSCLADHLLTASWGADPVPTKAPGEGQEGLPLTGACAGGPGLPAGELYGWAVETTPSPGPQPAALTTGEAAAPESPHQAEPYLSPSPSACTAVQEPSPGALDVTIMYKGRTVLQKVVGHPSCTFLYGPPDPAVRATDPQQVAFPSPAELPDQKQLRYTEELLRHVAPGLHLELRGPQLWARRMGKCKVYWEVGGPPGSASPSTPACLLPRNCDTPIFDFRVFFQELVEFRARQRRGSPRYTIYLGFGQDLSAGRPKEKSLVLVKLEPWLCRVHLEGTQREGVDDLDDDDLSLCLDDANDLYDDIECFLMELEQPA
Oligonucleotide,fitted relative affinity [z-score]
TTTCCACTTTCTTTTGCTTGGTGCTAG,8.6
TCATGTCTCCCCCATCTTACTGTGCTA,1.06
TTAGCTCTCAGTTTCGATTAGTGCTAG,5.38
TTCGGTTCCGGTTTCGGTTAGTGCTAG,9.23
TCAACTTTCTTTAACTCACTGTGCTAG,1.07
AGATTCCTCTCACCTCGGCCTGTGCTA,1.42
TCTAACTTCCCAATGGTCTTGTGCTAG,1.16
GACGGTATCCTTCTCCTGAAGTGCTAG,0.966
GACGATTTCGGGTAACGAGACGTGCTA,2.01
TAGGGACTCAGGTCTCCCTTGGTGCTA,-0.533
TCACCTTTACTTTCTTTACTGTGCTAG,2.78
CTGGCCTGGGGTCTGCAGAGGTGCTAG,-1.52
GACGATTTTAGTCTCGAGACGTGCTAG,0.496
TTAGGTTTCGGGTTTAGGTTAGTGCTA,7.66
TCACTTCCCAATTCTCTTACTGTGCTA,3.4
CCCTGTGTTACTTTCTACTTGTGCTAG,4.54
TTAGGTCTCCTTCCCCTTTAGTGCTAG,1.85
TTAGGACTGGTTATCCTTTAGTGCTAG,0.192
TTATGTTTCGGGTATCGGTTAGTGCTA,5.72
GGCTTTTTTTTTTTTTTTTTGTGCTAG,0.619
TTAGGTCTCCTACTACTTTAGTGCTAG,0.695
TGTACTCTCTCCATGTGTTTGTGCTAG,2.11
GACGGTATCAGTATCGGGACGTGCTAG,0.154
TTAGATATCGGGGTTCGATTAGTGCTA,0.376

# Series 6
# Target: TAR DNA-binding protein 43, full length, His tag (TARDBP, Homo sapiens, UniProt Q13148, residues 1-414)
# Technique: RNA Bind-n-Seq
# Form: RNA
# Matrix: in vitro
# Tested at: 20 nM
# Setting: 6-mer, flanks averaged, single round
# Added: 150 mM KCl
# Reference: input library
# Reading: higher = stronger binding
Oligonucleotide,6-mer enrichment (R)
CAGCUG,0.853
CACGUU,0.608
AGAAGG,1.74
GCCUAU,0.67
GCCCGG,1.27
GCACGU,0.926
CCGAUG,0.834
CCGGAG,1.48
CGCCGC,0.829
UGGCGU,1.32
UACUCC,0.605
AACGCU,0.606
UAAGCG,0.934
GAUAGA,0.909
AACUUU,0.61
GUAAGC,0.846
GGAAGG,4.36
UACACG,0.696
GGGAGA,3.85
CGUCGC,0.852
